Measurements collected from several papers.
Compare with care: the assays were run in different laboratories. Numbers after ± are the reported error.

SMILES	test	system	setting	measurement	value
C#CCCCNCCNc1ccnc2cc(Cl)ccc12		monkey cells		CC50	89 ± 0.3 µM
N[C@]1(c2ccccc2Cl)CCC[C@H](O)C1=O		Wistar rat, plasma	intravenous, 20 mg/kg	terminal half-life	8 ± 4 h
CN[C@@H]1[C@H](O)[C@H](NC)[C@H]2O[C@]3(O)[C@H](O[C@@H]2[C@H]1O)O[C@H](C)C[C@H]3NC(=O)Cc1cc(Cl)ccn1	metabolic stability	rat, liver microsomes	90 min	compound remaining	67.3%
CCCCCc1cc(OC(=O)C(NC(=O)CCC(=O)O)C(C)C)c2c(c1)OC(C)(C)C1CCC(C)=CC21 (stereo not shown)		isolated rabbit cornea	3 h, pH 7.4, 34 °C, donor polysorbate sample B 0.05%	Papp	4.1 ± 0.2 ×10⁻⁶ cm/s
CN[C@@H]1[C@H](O)[C@H](NC)[C@H]2O[C@]3(O)[C@H](O[C@@H]2[C@H]1O)O[C@H](C)C[C@H]3NC(=O)Cc1cscn1	metabolic stability	rat, liver microsomes	90 min	compound remaining	109%
CCCCCc1cc(O)c2c(c1)OC(C)(C)C1CCC(C)=CC21 (stereo not shown)		isolated rabbit cornea	3 h, pH 7.4, 34 °C, donor 2.5% HPβCD	Papp	5.6 ×10⁻⁶ cm/s
N=C(N)NCCCCCCN1CCC23c4c5ccc(O)c4OC2c2nc4ccccc4cc2CC3(O)C1C5 (stereo not shown)		CD-1 mice, male	subcutaneous, 30 mg/kg, 80 min	plasma concentration	~1200 ng/mL
N=C(N)NCCC[C@H](NC(=O)[C@@H](N)CO)C(=O)N[C@@H](Cc1ccc(O)cc1)C(=O)N[C@@H](Cc1ccc(O)cc1)C(=O)N1CCC[C@H]1C(=O)N[C@@H](Cc1ccccc1)C(=O)N[C@@H](Cc1ccccc1)C(=O)NCC(=O)N[C@@H](CC(=O)O)C(=O)N[C@@H](CO)C(=O)O	cytotoxicity	human cells	2 (unit not given)	CC50	> 100 µM
CCC(=C(c1ccc(Cl)cc1)c1ccc(OCCN2CCOCC2)cc1)c1ccccc1		human		CC50	15.1 µg/mL
C[C@H](NC(C)(C)C)C(=O)c1cccc(Cl)c1		human plasma	500 nM, 37 °C	chiral inversion rate constant	0.54 h⁻¹
CSCC[C@@H]1NC(=O)[C@H](CCC(=O)O)NC(=O)[C@H](CC(C)C)NC(=O)[C@H](CC(C)C)NC(=O)[C@H](CCCCN)NC(=O)[C@H](CC(=O)O)NC(=O)[C@H](CC(=O)O)NC(=O)[C@H](CC(N)=O)NC(=O)[C@H](CC(=O)O)NC(=O)[C@@H]2CSSC[C@@H]3NC(=O)[C@H]([C@@H](C)O)NC(=O)[C@H](C(C)C)NC(=O)[C@@H]4CCCN4C(=O)[C@H](CSSC[C@H](NC(=O)[C@H](CC(=O)O)NC(=O)[C@H](Cc4ccccc4)NC(=O)[C@H](CC(N)=O)NC(=O)[C@H](CCCCN)NC(=O)[C@H](CCC(=O)O)NC(=O)[C@H](CC(=O)O)NC(=O)[C@H](C)NC(=O)[C@@H](NC(=O)[C@H](Cc4c[nH]cn4)NC(=O)[C@@H](N)CCC(=O)O)CSSC[C@@H](C(N)=O)NC(=O)[C@H](Cc4ccccc4)NC(=O)CNC3=O)C(=O)N[C@@H](CCCNC(=N)N)C(=O)N[C@@H](CCCNC(=N)N)C(=O)N[C@@H](CO)C(=O)N[C@@H](CC(C)C)C(=O)N[C@@H](CCCNC(=N)N)C(=O)N[C@@H](CC(N)=O)C(=O)NCC(=O)N[C@@H](CC(=O)O)C(=O)N2)NC(=O)[C@H](Cc2ccc(O)cc2)NC(=O)[C@H](Cc2ccc(O)cc2)NC(=O)CNC1=O	chemical stability	pig, simulated intestinal fluid		half-life	2.4 h
O=C(Cc1cccs1)N[C@@H]1C(=O)N2C(C(=O)O)=C(CSc3cccc[n+]3[O-])CS[C@H]12		mouse liver microsomes	0.5 µM	metabolic stability	stable
CC1=C[C@H]2c3c(O)cc(CCc4ccccc4)cc3OC(C)(C)[C@@H]2CC1	LC-MS/MS	male BALB/c mouse, brain	intraperitoneal, 40 mg/kg, 1 h, together with: Δ9-trans-THC 10 mg/kg and cis-PET 50 mg/kg	brain concentration	662 nM
